Measurements pooled from the literature.
Numbered parts are unrelated; each lists some results of a single study. Changes are numbered by the printed parent chain.
Chain of UniProt P54753 (whole entry, looked up): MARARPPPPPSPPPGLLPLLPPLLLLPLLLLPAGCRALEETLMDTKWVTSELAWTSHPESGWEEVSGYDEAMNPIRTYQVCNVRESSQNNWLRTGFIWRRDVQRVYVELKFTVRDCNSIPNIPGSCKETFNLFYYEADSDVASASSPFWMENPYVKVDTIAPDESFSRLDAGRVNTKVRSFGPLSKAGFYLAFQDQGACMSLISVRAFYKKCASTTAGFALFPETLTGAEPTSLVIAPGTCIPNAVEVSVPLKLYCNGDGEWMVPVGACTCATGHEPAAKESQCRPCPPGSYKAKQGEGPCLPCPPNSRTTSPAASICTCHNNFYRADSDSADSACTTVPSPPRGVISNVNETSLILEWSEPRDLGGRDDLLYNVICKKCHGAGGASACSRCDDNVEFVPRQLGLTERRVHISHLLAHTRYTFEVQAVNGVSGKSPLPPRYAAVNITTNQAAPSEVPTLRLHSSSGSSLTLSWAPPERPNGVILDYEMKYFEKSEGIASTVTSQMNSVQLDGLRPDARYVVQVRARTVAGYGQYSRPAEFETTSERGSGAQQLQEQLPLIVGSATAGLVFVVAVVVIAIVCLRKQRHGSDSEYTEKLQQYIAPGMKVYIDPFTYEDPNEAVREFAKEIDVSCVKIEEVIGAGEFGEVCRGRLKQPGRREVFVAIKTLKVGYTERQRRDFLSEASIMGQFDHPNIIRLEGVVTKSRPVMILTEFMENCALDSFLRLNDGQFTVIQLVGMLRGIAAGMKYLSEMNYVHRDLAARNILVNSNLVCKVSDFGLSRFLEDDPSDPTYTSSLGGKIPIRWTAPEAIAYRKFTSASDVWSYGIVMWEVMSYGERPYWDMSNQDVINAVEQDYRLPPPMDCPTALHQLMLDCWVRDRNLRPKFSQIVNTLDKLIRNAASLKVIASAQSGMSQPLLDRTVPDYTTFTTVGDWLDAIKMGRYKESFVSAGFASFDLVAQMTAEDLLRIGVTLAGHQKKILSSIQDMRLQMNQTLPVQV
Chain of UniProt P31152 (whole entry, looked up): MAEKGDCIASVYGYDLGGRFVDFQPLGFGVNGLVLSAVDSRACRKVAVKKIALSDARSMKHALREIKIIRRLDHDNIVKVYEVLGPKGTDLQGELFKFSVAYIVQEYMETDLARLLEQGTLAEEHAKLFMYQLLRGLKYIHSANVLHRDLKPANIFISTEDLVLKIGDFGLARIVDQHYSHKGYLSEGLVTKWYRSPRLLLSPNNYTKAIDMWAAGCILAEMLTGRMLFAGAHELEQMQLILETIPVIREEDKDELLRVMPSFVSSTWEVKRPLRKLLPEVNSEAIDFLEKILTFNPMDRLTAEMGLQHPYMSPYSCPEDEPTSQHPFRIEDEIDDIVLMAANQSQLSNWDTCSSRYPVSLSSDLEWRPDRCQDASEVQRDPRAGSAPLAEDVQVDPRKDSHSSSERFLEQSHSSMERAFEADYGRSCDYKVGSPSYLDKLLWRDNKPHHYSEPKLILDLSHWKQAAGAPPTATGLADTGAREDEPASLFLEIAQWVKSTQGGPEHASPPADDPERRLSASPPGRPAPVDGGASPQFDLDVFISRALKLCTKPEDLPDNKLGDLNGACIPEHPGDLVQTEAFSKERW
Chain of UniProt P50613 (whole entry, looked up): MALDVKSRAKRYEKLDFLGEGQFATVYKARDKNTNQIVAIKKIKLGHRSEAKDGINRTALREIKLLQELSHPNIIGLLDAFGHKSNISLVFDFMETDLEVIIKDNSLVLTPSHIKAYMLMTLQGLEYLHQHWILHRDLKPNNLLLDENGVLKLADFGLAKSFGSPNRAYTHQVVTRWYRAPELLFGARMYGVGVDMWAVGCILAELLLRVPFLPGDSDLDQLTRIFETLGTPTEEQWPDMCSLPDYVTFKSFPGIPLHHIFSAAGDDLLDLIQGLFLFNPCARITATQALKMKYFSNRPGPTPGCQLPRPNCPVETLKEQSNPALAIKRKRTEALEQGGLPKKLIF
Chain of UniProt P42336 (whole entry, unmodified, looked up): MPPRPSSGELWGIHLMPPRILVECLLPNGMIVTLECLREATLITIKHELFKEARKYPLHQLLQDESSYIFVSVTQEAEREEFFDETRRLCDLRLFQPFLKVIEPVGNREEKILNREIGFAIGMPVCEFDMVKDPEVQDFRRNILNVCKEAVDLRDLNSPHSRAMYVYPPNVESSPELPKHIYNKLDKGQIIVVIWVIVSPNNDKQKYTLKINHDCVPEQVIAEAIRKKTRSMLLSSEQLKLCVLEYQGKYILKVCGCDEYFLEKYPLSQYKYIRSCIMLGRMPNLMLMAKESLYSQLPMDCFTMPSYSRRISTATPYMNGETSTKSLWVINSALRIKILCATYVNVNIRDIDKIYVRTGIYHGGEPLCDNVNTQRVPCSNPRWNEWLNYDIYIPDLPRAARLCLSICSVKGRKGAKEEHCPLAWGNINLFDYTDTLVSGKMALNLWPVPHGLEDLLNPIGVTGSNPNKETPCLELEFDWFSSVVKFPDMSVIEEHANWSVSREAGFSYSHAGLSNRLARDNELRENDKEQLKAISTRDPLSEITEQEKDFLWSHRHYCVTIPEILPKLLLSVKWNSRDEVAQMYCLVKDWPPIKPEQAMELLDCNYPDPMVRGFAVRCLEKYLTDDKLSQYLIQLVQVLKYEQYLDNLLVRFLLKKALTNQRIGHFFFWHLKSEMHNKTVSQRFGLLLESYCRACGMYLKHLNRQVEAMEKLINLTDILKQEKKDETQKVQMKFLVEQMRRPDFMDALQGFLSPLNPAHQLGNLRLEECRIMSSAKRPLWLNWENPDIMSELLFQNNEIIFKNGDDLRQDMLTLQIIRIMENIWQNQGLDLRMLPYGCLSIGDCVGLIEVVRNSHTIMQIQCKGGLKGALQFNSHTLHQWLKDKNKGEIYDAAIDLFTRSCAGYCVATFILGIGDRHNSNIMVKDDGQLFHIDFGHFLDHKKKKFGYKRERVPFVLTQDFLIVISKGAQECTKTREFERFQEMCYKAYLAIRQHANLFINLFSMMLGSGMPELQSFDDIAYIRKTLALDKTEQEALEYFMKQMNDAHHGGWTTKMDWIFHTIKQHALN
Chain of UniProt Q02763 (whole entry, looked up): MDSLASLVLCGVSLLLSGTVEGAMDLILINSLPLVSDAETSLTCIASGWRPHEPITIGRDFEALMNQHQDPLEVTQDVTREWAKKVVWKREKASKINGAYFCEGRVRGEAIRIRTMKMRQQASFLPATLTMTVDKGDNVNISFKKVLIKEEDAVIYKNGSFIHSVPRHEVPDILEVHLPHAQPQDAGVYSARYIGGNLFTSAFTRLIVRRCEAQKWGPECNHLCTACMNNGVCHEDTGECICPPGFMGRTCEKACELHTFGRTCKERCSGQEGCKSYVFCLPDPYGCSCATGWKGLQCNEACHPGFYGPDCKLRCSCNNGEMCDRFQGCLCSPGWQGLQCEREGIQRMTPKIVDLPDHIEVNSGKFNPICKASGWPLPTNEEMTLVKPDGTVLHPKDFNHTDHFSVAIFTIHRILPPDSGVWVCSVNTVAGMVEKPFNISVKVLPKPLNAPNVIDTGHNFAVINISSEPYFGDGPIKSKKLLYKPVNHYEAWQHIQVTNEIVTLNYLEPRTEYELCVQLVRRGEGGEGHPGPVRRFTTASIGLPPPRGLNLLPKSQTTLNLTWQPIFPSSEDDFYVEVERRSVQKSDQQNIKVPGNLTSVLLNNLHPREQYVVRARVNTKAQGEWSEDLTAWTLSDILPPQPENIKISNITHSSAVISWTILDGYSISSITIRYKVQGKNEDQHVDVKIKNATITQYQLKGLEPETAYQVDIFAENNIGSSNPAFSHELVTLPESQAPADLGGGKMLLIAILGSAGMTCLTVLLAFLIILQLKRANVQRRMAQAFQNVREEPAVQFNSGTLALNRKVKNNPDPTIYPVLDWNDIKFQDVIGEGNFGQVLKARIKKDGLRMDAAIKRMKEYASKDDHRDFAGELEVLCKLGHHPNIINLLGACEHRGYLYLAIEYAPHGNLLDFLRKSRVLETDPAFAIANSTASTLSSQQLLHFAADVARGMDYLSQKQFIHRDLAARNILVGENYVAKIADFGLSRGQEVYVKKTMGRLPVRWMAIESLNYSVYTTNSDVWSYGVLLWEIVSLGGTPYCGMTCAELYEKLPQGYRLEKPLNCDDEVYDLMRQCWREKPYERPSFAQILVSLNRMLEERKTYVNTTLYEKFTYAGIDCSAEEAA
Chain of UniProt Q9UIK4 (whole entry, looked up): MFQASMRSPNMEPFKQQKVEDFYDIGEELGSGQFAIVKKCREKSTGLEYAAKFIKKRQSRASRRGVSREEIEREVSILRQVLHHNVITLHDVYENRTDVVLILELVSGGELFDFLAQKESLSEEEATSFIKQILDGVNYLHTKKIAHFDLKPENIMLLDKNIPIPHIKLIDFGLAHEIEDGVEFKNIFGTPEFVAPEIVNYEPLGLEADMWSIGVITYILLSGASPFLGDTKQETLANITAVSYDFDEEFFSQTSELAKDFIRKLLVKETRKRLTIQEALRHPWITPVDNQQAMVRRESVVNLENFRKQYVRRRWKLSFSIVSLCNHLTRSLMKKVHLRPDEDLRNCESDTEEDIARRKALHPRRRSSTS

Block 1 — technique: protein-binding microarray; molecule type: double-stranded DNA, one strand shown; medium: in vitro; concentration: 0.8 µM; setting: whole 60-bp probe, no competitor; direction: higher = stronger binding; constant ends, left off below: … GTCTTGATTCGCTTGACGCTGCTG
Target: Centromere-binding protein 1, full length, N-terminal tag (CBF1, Saccharomyces cerevisiae, UniProt P17106, residues 1-351)
Chain of UniProt P17106 (whole entry, looked up): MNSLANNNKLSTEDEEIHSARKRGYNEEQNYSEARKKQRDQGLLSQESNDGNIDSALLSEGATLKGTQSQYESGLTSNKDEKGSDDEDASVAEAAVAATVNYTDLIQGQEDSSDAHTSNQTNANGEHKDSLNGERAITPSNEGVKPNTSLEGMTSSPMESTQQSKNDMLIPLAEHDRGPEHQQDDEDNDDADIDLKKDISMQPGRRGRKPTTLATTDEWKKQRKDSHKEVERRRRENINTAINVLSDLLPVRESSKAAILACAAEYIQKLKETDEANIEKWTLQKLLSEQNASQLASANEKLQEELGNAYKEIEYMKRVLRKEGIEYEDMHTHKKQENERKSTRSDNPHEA
Oligonucleotide	fluorescence intensity [a.u.]
TGTACGAAGCTATAGCACGATGGTATAGTAGTTAGG	557
TGTACGAAGCTATAAAACGTGAGTATAGTAGTTAGG	612
CTACTTGTTTTACCTCACCTGGTACTACTAGTATTC	537
CCTAACTACTATAAGCACGTCGCATAGCTTCGTACA	542
CTATGGCGATCGAAGCACGTGATCAGTTTTCCATTC	24700
CTATGGCGCTGCTACGCCGTGACAAGTCATTTCTTC	562
CTATTTTTTTCCTCTCACCCGCAAAGCAAAGGGTTC	537
GAACTGTAAAATGAAAACGTGCGGAATCTTCATTAG	639

Block 2 — read-out: cell-free assay; technique: competition with immobilised ligand; concentration: 1 µM
SMILES: CC1=C(C#N)C(c2ccc3c(c2)c(NC(=O)c2ccccc2C)nn3C)C(C#N)=C(C)N1
target	remaining binding
Tyrosine-protein kinase ABL1, non-phosphorylated (ABL1, Homo sapiens, UniProt P00519, T315I)	88%
Tyrosine-protein kinase Mer (MERTK, Homo sapiens, UniProt Q12866)	100%
Leucine-rich repeat serine/threonine-protein kinase 2 (LRRK2, Homo sapiens, UniProt Q5S007, G2019S)	100%
Cyclin-dependent kinase 9 (CDK9, Homo sapiens, UniProt P50750)	100%
Tyrosine-protein kinase receptor TYRO3 (TYRO3, Homo sapiens, UniProt Q06418)	100%
Mitogen-activated protein kinase kinase kinase 5 (MAP3K5, Homo sapiens, UniProt Q99683)	89%
Receptor-interacting serine/threonine-protein kinase 2 (RIPK2, Homo sapiens, UniProt O43353)	100%
Death-associated protein kinase 2 (DAPK2, Homo sapiens, UniProt Q9UIK4)	98%
Membrane-associated tyrosine- and threonine-specific cdc2-inhibitory kinase (PKMYT1, Homo sapiens, UniProt Q99640)	99%
Cyclin-dependent kinase 7 (CDK7, Homo sapiens, UniProt P50613)	58%
ALK tyrosine kinase receptor (ALK, Homo sapiens, UniProt Q9UM73)	100%
Tyrosine-protein kinase Fes/Fps (FES, Homo sapiens, UniProt P07332)	84%
Ephrin type-B receptor 3 (EPHB3, Homo sapiens, UniProt P54753)	99%
Death-associated protein kinase 1 (DAPK1, Homo sapiens, UniProt P53355)	89%
Epidermal growth factor receptor (EGFR, Homo sapiens, UniProt P00533, G719C)	83%
Ephrin type-B receptor 6 (EPHB6, Homo sapiens, UniProt O15197)	81%
Phosphatidylinositol 4,5-bisphosphate 3-kinase catalytic subunit alpha isoform (PIK3CA, Homo sapiens, UniProt P42336, H1047L)	100%
Macrophage colony-stimulating factor 1 receptor (CSF1R, Homo sapiens, UniProt P07333)	99%
Mitogen-activated protein kinase 4 (MAPK4, Homo sapiens, UniProt P31152)	100%
Angiopoietin-1 receptor (TEK, Homo sapiens, UniProt Q02763)	98%

Block 3 — target: CCNB1, cyclin fold, Cln2 fusion (human); technique: yeast growth competition, sequencing; medium: yeast; setting: weak parent motif; relative to: not given; direction: higher = stronger binding
Starting sequence: ORC1 docking peptide (human); PRARKRLELGNLG
Substitution	normalised enrichment score
PPARKRLELGNLG [R2P]	0.997
PRARKRLKLGNLG [E8K]	0.261
PVARKRLELGNLG [R2V]	0.539
PRARLRLELGNLG [K5L]	0.105
PRARKREELGNLG [L7E]	0.578
PRCRKRLELGNLG [A3C]	1.5
PRARKRIELGNLG [L7I]	0.918
PRARVRLELGNLG [K5V]	0.0102

Further values, each from its own experiment
SMILES	target or system	test	test system	setting	quantity	value
CC(C)n1cnc(-c2ccc(F)cc2)c1-c1ncc(C(=O)Nc2ccc(N3CCN(C)CC3)cc2)[nH]1	–	phase 2a trial	idiopathic pulmonary fibrosis patients	dose not given, adverse event grade 2, all dose arms pooled	patients with constipation	0%
CC[C@H](C)C(=O)O[C@H]1C[C@@H](C)C=C2C=C[C@H](C)[C@H](CC[C@@H]3C[C@@H](O)CC(=O)O3)[C@H]21	Sarcocystis neurona	parasite growth	–	10 µM, secondary screen	inhibition	-39.7%
COc1cc(=O)[nH]cc1C(=O)N[C@@H]1CCO[C@H]1c1c(C)nn(C)c1C	–	–	human, microsomes or S9	2 µM, 0.5 h	remaining compound	78.1%
NCCCC[C@H](NC(=O)[C@@H]1CCCN1C(=O)[C@@H]1CSSC[C@H](N)C(=O)N[C@@H](Cc2ccccc2)C(=O)N[C@@H](Cc2ccccc2)C(=O)N[C@@H](CCC(N)=O)C(=O)N[C@@H](CC(N)=O)C(=O)N1)C(=O)NCC(N)=O	HaCaT	–	–	100 µM, 36 h	viability	88.6%

Some of these lines once more (block 2):
target	remaining binding
Tyrosine-protein kinase receptor TYRO3 (TYRO3, Homo sapiens, UniProt Q06418)	100%
Ephrin type-B receptor 3 (EPHB3, Homo sapiens, UniProt P54753)	99%
Leucine-rich repeat serine/threonine-protein kinase 2 (LRRK2, Homo sapiens, UniProt Q5S007, G2019S)	100%
Epidermal growth factor receptor (EGFR, Homo sapiens, UniProt P00533, G719C)	83%
